Measurements of several laboratories.
“And” joins repeats or separate records; there may be more than shown. ± marks the error that the study gave. Converted amounts (≈) assume the structure as drawn.

Compound | organism | test | system | conditions | scale | measurement | value
COc1cc(NC(=O)Cn2ccc3cc(F)c(-c4cnn(C)c4)cc32)cc(OC)c1OC | Plasmodium falciparum |  | Dd2 PfATP4 G358S | 72 h | baseline: mutant over parental | EC50 fold shift | 10 fold
CCCCCCCCCCCCCCCC[N+](C)(C)Cc1ccc(C[N+](C)(C)CCCCCCCCCCCCCCCC)cc1.[Br-].[Br-] | influenza A virus A/PR/8/34 (H1N1) |  |  | concentration not given, post-treatment |  | HA titre reduction | 2.5 ± 0.5 log units
Nc1ccn([C@@H]2O[C@H](CO)[C@@H](O)C2(F)F)c(=O)n1 | influenza A virus H1N1 | viral replication, NP ELISA | MDCK |  |  | IC90 | 1.32 ± 0.44 µM
CS(=O)(=O)Nc1ncn(-c2cc(F)c(COc3ccc(OS(=O)(=O)F)cc3)c(F)c2)n1 | Mycobacterium tuberculosis Erdman-Lux |  | BALB/c mouse | oral, 20 mg/kg once daily, 12 days, unit not given | baseline: untreated | lung CFU reduction | 3.1
[Ca+2] | Halyomorpha halys | outward current, inhibitor, electrophysiology |  | 1 mM, C-terminal deletion |  | inhibition | 13.6%
CCCCCCCCCCCCCCCC[N+](C)(C)CCCCCCCCCCCC[N+](C)(C)CCCCCCCCCCCCCCCC.[Br-].[Br-] | influenza A virus A/PR/8/34 (H1N1) |  |  | concentration not given, pre-treatment |  | protection | 68.9 ± 8.9%
CC(C)C(=O)OC[C@H]1O[C@@H](n2ccc(NO)nc2=O)[C@H](O)[C@@H]1O | influenza A virus H1N1 | viral replication, NP ELISA | MDCK |  |  | IC90 | 81.4 ± 23.2 µM
Cn1c(=O)ccc2ccc(F)c(CCNC[C@H]3CN(c4cnc5c(n4)NC(=O)CO5)C(=O)O3)c21 | Burkholderia gladioli |  |  |  |  | MIC50 | 0.06 µg/mL (≈ 0.128 µM)
CCCCCCCCCCCCCCCC[N+](C)(C)CCCCCCCCCC[N+](C)(C)CCCCCCCCCCCCCCCC.[Br-].[Br-] | influenza A virus A/PR/8/34 (H1N1) |  |  | concentration not given, pre-treatment |  | protection | 55.4 ± 11.4%
O=c1ccn([C@@H]2O[C@](F)(CO)[C@@H](O)[C@H]2O)c(=O)[nH]1 | human respiratory syncytial virus |  | recombinant reporter virus | concentration not given, scale 0 to 100, added: adenosine 11.1 µM |  | normalized viral replication | 0 and 0.04
O=C1c2c(O)c(=O)ccn2N([C@@H]2c3ccccc3SCc3c2ccc(F)c3F)[C@@H]2COCCN12 | influenza A virus H1N1 |  | A/WSN/33, BALB/c mice, lung | subcutaneous, 2 mg/kg every 6 h, 24 h |  | lung virus titre | 3.67 log10 TCID50/mL and 2 log10 TCID50/mL and 1.5 log10 TCID50/mL and 2.33 log10 TCID50/mL and 3 log10 TCID50/mL
CCCCCCCCCCCC[N+](C)(C)CCCNCCC[N+](C)(C)CCCCCCCCCCCC.[Br-].[Br-] | influenza A virus A/PR/8/34 (H1N1) |  |  | concentration not given, co-treatment |  | HA titre reduction | 5 ± 1 log units
Oc1c(Cl)cc(Cl)cc1-c1[nH]c(Cl)c(Cl)c1Cl | Vibrio cholerae |  | El Tor |  |  | MIC | 4 µM
CCCCCCC#Cc1cncc(-c2nnc(SCc3cc([N+](=O)[O-])cc([N+](=O)[O-])c3)n2C)c1 | Mycobacterium avium |  |  |  | no activity below value | MIC | ≥ 200 µM
CCC(CC)O[C@@H]1C=C(C(=O)O)C[C@H](N)[C@H]1NC(C)=O | influenza A virus A/PR/8/34 (H1N1) |  |  | concentration not given, pre-treatment |  | HA titre reduction | 8 log units
O=C(O)c1cn(C2CC2)c2cc(N3CCNCC3)c(F)cc2c1=O | Vibrio cholerae |  | El Tor |  |  | MIC | 0.06 µM
N#C[C@@]1(n2ccc(N)nc2=O)O[C@H](CO)[C@@H](O)[C@H]1O | influenza B virus | viral replication, cell-based |  |  |  | EC50 | > 40 µM
CC(N)C12CC3CC(CC(C3)C1)C2 (stereo not drawn) | influenza A virus H1N1 | viral cytopathic effect, MTS | MDCK |  |  | EC50 | 20.5 µM
[H]/N=C(/N)N[C@H]1[C@H](O)[C@@H](O)[C@H](O[C@@H]2O[C@@H](C)[C@](O)(C=O)[C@H]2O[C@@H]2O[C@@H](CO)[C@H](O)[C@@H](O)[C@@H]2NC)[C@@H](N/C(N)=N\[H])[C@@H]1O | Mycobacterium ulcerans |  | ATCC 35840 |  |  | MIC | 0.1 to 0.4 µg/mL
CCCCCCCCCCCC[N+](C)(C)CCCCCCCCCC[N+](C)(C)CCCCCCCCCCCC.[Br-].[Br-] | influenza A virus A/PR/8/34 (H1N1) |  |  | concentration not given, post-treatment |  | protection | 53.7 ± 5.7%
CC(=O)N[C@H]1[C@H]([C@H](O)[C@H](O)CO)OC(C(=O)O)=C[C@@H]1N=C(N)N | influenza A virus H1N1 | viral cytopathic effect, MTS | MDCK |  |  | EC50 | 0.8 µM
CC[C@H](C)[C@H](NC(=O)[C@H](C)NC(=O)[C@H](CCCNC(=N)N)NC(=O)[C@H](CCCNC(=N)N)NC(=O)[C@@H](N)CCCNC(=N)N)C(=O)N[C@@H](CO)C(=O)NCC(=O)N[C@@H](CO)C(=O)N[C@@H](CC(C)C)C(=O)N[C@H](C(=O)N[C@H](C(=O)N[C@@H](CC(C)C)C(=O)N[C@@H](Cc1ccccc1)C(=O)NCC(=O)N[C@@H](Cc1ccc(O)cc1)C(=O)N[C@@H](CCCNC(=N)N)C(=O)N[C@@H](CCCNC(=N)N)C(=O)N[C@@H](CCCNC(=N)N)C(N)=O)[C@@H](C)O)C(C)C | ESKAPE pathogen panel |  |  | range over entire panel |  | MIC | 8 to 128 µM
OC(Cn1cncn1)(Cn1cncn1)c1ccc(F)cc1F | Fusarium oxysporum | broth microdilution | LM 5634 | 50% inhibition endpoint |  | MIC | 32 µg/mL
CCCCCCCCCCCCCCCCCC[N+](C)(C)CCCCCCCCCCCC[N+](C)(C)CCCCCCCCCCCCCCCCCC.[Br-].[Br-] | influenza A virus A/PR/8/34 (H1N1) |  |  | concentration not given, post-treatment |  | protection | 75.9 ± 3.1%
NC12CC3CC(CC(C3)C1)C2 | influenza B virus | viral cytopathic effect, MTS | MDCK |  |  | EC50 | > 200 µM
CCCCCCCCCCCCCCCCCC[N+](C)(C)Cc1ccc(C[N+](C)(C)CCCCCCCCCCCCCCCCCC)cc1.[Br-].[Br-] | influenza A virus A/PR/8/34 (H1N1) |  |  | concentration not given, pre-treatment |  | HA titre reduction | 3.5 ± 0.5 log units
Nc1ncn([C@@H]2O[C@H](CO)[C@@H](O)[C@H]2O)c(=O)n1 | influenza A virus H1N1 | viral replication, NP ELISA | MDCK |  |  | IC90 | 9.24 ± 0.28 µM

A few entries again:
Compound | organism | test | system | conditions | scale | measurement | value
O=C(O)c1cn(C2CC2)c2cc(N3CCNCC3)c(F)cc2c1=O | Vibrio cholerae |  | El Tor |  |  | MIC | 0.06 µM
N#C[C@@]1(n2ccc(N)nc2=O)O[C@H](CO)[C@@H](O)[C@H]1O | influenza B virus | viral replication, cell-based |  |  |  | EC50 | > 40 µM
